Results collected from several papers.
Protocols differ between the studies behind these lines.
FGFR3 isoform IIIc: FGFR3 isoform IIIc (unknown, UniProt Q61851)
UniProt Q61851, sequence (whole entry, looked up): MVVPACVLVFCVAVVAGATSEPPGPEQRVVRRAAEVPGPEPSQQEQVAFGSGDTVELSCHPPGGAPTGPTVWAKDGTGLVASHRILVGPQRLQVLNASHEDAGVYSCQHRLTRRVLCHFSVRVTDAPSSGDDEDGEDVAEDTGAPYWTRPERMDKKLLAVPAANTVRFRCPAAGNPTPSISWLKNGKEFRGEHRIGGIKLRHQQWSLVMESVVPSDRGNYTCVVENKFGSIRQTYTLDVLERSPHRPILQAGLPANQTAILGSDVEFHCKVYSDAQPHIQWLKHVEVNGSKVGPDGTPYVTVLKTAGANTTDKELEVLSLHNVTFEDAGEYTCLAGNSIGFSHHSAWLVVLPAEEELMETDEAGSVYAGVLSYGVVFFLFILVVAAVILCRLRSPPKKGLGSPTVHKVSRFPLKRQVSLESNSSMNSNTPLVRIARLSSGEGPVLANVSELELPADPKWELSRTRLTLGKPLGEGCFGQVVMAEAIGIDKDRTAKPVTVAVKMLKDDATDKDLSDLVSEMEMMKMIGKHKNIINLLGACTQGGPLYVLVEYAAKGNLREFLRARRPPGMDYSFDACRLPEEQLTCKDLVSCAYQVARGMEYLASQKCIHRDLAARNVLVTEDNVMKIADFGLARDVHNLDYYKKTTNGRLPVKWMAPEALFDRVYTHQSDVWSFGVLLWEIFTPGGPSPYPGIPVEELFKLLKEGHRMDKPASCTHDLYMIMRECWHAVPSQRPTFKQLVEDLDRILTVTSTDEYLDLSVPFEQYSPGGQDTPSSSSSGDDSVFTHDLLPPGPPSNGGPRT
B1: TIMP3 24-144 (Homo sapiens, UniProt P35625); sequence looked up; chain CTCSPSHPQDAFCNSDIVIRAKVVGKKLVKEGPFGTLVYTIKQMKMYRGFTKMPHVQYIHTEASESLCGLKLEVNKYQYLLTGRVYDGKMYTGLCNFVERWDQLTLSQRKGLNYRYHLGCN
B2: GRK1 1-535 (Bos taurus, UniProt P28327); chain MDFGSLETVVANSAFIAARGSFDASSGPASRDRKYLARLKLPPLSKCEALRESLDLGFEGMCLEQPIGKRLFQQFLRTHEQHGPALQLWKDIEDYDTADDALRPQKAQALRAAYLEPQAQLFCSFLDAETVARARAGAGDGLFQPLLRAVLAHLGQAPFQEFLDSLYFLRFLQWKWLEAQPMGEDWFLDFRVLGRGGFGEVFACQMKATGKLYACKKLNKKRLKKRKGYQGAMVEKKILAKVHSRFIVSLAYAFETKTDLCLVMTIMNGGDIRYHIYNVDEDNPGFQEPRAIFYTAQIVSGLEHLHQRNIIYRDLKPENVLLDDDGNVRISDLGLAVELKAGQTKTKGYAGTPGFMAPELLLGEEYDFSVDYFALGVTLYEMIAARGPFRARGEKVENKELKQRVLEQAVTYPDKFSPASKDFCEALLQKDPEKRLGFRDGSCDGLRTHPLFRDISWRQLEAGMLTPPFVPDSRTVYAKNIQDVGAFSTVKGVAFEKADTEFFQEFASGTCPIPWQEEMIETGVFGDLNVWRPDG
B3: UGT1A9 (Homo sapiens, UniProt O60656); chain GKLLVVPMDGSHWFTMRSVVEKLILRGHEVVVVMPEVSWQLGRSLNCTVKTYSTSYTLEDLDREFKAFAHAQWKAQVRSIYSLLMGSYNDIFDLFFSNCRSLFKDKKLVEYLKESSFDAVFLDPFDNCGLIVAKYFSLPSVVFARGILCHYLEEGAQCPAPLSYVPRILLGFSDAMTFKERVRNHIMHLEEHLLCHRFFKNALEIASEILQTPVTEYDLYSHTSIWLLRTDFVLDYPKPVMPNMIFIGGINCHQGKPLPMEFEAYINASGEHGIVVFSLGSMVSEIPEKKAMAIADALGKIPQTVLWRYTGTRPSNLANNTILVKWLPQNDLLGHPMTRAFITHAGSHGVYESICNGVPMVMMPLFGDQMDNAKRMETKGAGVTLNVLEMTSEDLENALKAVINDKSYKENIMRLSSLHKDRPVEPLDLAVFWVEFVMRHKGAPHLRPAAHDLTWYQYHSLDVIGFLLAVVLTVAFITFKCCAYGYRKCLGKKGRVKKAHKSKTH
UniProt P38912, sequence (whole entry, looked up): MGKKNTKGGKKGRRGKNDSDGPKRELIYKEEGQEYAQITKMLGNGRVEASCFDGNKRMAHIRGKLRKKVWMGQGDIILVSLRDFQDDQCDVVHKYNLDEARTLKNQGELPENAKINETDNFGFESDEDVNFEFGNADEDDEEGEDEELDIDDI
UniProt P31266, sequence (whole entry, unmodified, looked up): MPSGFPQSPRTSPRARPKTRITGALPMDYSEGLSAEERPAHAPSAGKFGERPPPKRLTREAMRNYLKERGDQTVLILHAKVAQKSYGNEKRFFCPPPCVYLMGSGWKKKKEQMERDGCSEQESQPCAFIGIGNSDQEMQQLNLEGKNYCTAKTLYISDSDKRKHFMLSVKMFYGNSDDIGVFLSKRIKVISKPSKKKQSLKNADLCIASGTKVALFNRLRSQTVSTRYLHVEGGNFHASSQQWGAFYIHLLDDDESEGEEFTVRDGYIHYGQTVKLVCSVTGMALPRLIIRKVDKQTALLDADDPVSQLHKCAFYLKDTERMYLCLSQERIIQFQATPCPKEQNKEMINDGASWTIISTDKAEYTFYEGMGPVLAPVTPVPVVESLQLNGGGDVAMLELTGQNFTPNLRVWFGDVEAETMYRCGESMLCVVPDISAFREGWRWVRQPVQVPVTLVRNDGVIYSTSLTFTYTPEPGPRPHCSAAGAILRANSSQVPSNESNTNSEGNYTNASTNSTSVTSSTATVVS
UniProt O75173, sequence (whole entry, unmodified, looked up): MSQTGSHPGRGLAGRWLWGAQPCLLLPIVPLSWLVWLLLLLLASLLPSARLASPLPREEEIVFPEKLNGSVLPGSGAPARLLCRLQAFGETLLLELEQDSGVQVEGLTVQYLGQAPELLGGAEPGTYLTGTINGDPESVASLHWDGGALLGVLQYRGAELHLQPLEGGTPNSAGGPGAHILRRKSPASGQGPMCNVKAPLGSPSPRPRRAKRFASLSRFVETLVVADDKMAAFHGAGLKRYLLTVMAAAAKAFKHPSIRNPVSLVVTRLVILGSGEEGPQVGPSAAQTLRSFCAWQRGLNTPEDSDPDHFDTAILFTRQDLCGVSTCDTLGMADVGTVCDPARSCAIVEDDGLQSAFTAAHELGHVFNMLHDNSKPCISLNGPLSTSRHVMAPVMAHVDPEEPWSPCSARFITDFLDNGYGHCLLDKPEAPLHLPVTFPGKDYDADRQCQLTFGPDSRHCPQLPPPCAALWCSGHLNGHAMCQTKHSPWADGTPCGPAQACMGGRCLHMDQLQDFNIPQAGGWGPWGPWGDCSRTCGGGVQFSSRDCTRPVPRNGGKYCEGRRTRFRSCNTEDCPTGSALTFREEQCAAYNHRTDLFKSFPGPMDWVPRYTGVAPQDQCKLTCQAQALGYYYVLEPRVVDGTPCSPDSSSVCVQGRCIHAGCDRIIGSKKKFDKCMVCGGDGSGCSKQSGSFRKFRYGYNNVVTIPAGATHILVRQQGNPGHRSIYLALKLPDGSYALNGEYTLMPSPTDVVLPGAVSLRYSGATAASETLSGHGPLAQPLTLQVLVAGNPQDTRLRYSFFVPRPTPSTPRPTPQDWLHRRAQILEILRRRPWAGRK
UniProt Q8PTU1, sequence (whole entry, looked up): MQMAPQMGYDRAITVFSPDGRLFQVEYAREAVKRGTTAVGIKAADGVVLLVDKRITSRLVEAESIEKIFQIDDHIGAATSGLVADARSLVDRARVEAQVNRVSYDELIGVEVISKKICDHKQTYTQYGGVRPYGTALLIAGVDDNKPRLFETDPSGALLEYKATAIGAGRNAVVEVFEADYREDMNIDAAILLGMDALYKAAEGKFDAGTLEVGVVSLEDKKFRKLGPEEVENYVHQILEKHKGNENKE
UniProt P0A6A8, sequence (whole entry, looked up): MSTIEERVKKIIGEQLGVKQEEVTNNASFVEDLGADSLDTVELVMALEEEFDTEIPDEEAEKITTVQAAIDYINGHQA
UniProt P55075, sequence (whole entry, looked up): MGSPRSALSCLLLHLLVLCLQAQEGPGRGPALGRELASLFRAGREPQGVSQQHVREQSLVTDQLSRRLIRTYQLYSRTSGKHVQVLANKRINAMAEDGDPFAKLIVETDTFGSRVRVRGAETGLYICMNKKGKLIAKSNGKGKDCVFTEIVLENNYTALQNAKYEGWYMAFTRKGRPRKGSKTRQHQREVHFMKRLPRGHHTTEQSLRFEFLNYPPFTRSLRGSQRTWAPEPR
UniProt P30872, sequence (whole entry, unmodified, looked up): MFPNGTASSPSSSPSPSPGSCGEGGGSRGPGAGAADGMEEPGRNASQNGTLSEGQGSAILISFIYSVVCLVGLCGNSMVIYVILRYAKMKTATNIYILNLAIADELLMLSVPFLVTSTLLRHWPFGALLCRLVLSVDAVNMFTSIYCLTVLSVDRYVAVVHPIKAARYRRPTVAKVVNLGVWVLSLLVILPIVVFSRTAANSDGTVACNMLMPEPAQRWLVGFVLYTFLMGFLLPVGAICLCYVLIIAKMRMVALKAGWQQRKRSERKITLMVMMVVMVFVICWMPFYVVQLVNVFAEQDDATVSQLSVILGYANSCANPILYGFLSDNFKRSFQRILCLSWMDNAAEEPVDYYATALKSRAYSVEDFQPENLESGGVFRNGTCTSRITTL
UniProt P39730, sequence (whole entry, unmodified, looked up): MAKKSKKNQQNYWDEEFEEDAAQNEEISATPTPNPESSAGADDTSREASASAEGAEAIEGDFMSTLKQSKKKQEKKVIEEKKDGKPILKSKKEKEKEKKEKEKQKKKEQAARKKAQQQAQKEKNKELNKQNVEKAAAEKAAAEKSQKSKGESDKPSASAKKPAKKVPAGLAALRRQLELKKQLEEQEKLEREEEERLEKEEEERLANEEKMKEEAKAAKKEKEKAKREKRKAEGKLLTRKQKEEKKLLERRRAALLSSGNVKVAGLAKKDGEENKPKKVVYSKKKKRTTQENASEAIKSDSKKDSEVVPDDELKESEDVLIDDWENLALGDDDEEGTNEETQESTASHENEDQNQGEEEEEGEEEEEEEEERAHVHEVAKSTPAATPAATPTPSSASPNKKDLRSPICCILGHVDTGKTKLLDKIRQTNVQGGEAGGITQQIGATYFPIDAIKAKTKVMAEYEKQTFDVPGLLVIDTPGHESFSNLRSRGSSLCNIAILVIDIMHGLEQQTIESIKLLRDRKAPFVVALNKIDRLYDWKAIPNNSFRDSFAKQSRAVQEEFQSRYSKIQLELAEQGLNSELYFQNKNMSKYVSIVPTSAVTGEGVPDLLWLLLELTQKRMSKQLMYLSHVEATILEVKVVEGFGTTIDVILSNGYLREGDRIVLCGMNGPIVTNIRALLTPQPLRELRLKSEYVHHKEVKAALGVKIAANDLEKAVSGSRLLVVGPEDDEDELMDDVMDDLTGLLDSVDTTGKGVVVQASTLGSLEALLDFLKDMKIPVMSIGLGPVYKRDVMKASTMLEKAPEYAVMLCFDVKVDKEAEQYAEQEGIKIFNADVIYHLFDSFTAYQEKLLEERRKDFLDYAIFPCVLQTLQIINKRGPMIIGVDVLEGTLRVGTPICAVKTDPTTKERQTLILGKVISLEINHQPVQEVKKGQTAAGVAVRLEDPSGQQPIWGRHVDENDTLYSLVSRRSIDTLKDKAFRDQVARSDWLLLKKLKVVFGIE

FGF8 (Homo sapiens, UniProt P55075)
cell proliferation (FGFR3 isoform IIIc; cell proliferation, MTT; BaF3-FGFR3c; 20 nM, 48 h, added: unmodified decamer 4.9 µg/mL; reference: FGF 1 with heparin, higher = more proliferation): 3%

AMA C-terminal 7 residues (Methanosarcina mazei)
peptide hydrolysis (20S proteasome core particle (Methanosarcina mazei, UniProt Q8PTU1); LFP hydrolysis, activator; 0.6 nM CP, 37 °C; reference: MmCP alone, higher = more hydrolysis): 9 fold

EIWIAQELRXIGDXFNAYYA (BIM BH3 stapled peptide 145-164; N-terminal FITC-βAla, hydrocarbon staple S5 positions 10/14, C-terminal amide)
EC75 (BFL-1 ΔC (Homo sapiens); fluorescence polarisation; peptide; 20 min, added: FITC-BIM SAHBA2 50 nM): 200 nM

MMP2 fragment (Homo sapiens)
hydrolysis rate (COL1A1/COL1A2 denatured, gelatin (Homo sapiens); DQ-gelatin fluorescence; 10 nM, 25 °C; higher = faster hydrolysis): 0.306 RFU/s

B1 (TIMP3 24-144)
Ki (ADAMTS4 213-575 (Homo sapiens, UniProt O75173); inhibitor, steady-state kinetics; 18 h, pH 7.5, 37 °C, tight-binding fit): 0.1 nM

TIF11 (Saccharomyces cerevisiae, UniProt P38912)
rate constant (FUN12 396-1002 (Saccharomyces cerevisiae, UniProt P39730); subunit joining, stopped-flow light scattering; first phase, added: eIF5B•GTP 500 nM): 0.076 s⁻¹

MENAKKATATTTWMVPTAQ (L3MBTL3 52-70 V55A (Homo sapiens, UniProt Q96JM7-2); sequence looked up)
ΔH (Rbpj 53-474 (Mus musculus, UniProt P31266); ITC; peptide; pH 6.5, 25 °C, NaCl 150 mM): -13.6 kcal/mol

B2 (GRK1 1-535)
decrease in transducin fluorescence (RHO (Bos taurus, UniProt P02699); transducin activation by Rho*, inhibitor; higher = less activation): 50%

fabF R127A/K128A (Escherichia coli)
condensation rate (acpP C12-acylated 1-78, C12 acyl on 4'-phosphopantetheine (Escherichia coli, UniProt P0A6A8); holo-AcpP formation, HPLC; 10 µM, added: malonyl-CoA): 1.75 min⁻¹

F8 A2 subunit D666S (human)
decay rate (F8 A1 and A3C1C2 dimer, factor VIIIa; FXa generation activity loss; 1.5 nM, 23 °C; higher = faster decay): 0.49 min⁻¹

pasireotide, D-Trp, Tyr(4-Bzl)
potency of cAMP inhibition (SSTR1 M141Q (Homo sapiens, UniProt P30872); cAMP inhibition, FRET Epac sensor; HEK 293T; reference: wild-type SSTR1, higher = greater potency): > 10 fold

B3 (UGT1A9)
Vmax (CCCc1ccc(O)cc1; steady-state kinetics; pH 7.4, 37 °C): 0.002 µmol/min/mg

FGF8b (Homo sapiens)
cell proliferation (FGFR3 isoform IIIc; cell proliferation, MTT; BaF3-FGFR3c; 20 nM, 48 h, added: chondroitin sulfate E 4.9 µg/mL; reference: FGF 1 with heparin, higher = more proliferation): 47%

Some of these lines once more:
FGF8b (Homo sapiens)
cell proliferation (FGFR3 isoform IIIc; cell proliferation, MTT; BaF3-FGFR3c; 20 nM, 48 h, added: chondroitin sulfate E 4.9 µg/mL; reference: FGF 1 with heparin, higher = more proliferation): 47%
